Published values gathered from unrelated publications.
Protocols differ between the studies behind these lines. Numbers after ± are the reported error.

SMILES | target or system | test | system | setting | scale | quantity | result
CC[C@H]1CN([C@@H](CC)c2ccc(C(F)(F)F)cc2)[C@H](CC)CN1c1nc(=O)n(C)c2ccc(C#N)nc12 | human CD4+ T cells | protein phosphorylation, phosphoproteomics, refers to: POLE4 Ser9 phosphorylation | – | 1 h, stimulation 60 min | – | EC50 | 0.0106 µM
CC(C)(C)c1cc(-c2ccc3cccnc3n2)nc(-c2ccc3cccnc3n2)c1.COc1ccncc1.[Cl-].[Cl-].[Ru+2].c1ccc2cc3nc4c5cccnc5c5ncccc5c4nc3cc2c1 | SK-MEL-28 | cell viability | – | dark, hypoxia 1 % oxygen | – | EC50 | 90.9 ± 2 µM
O=S(=O)(C1CC2OC1C(c1ccc(O)cc1)=C2c1ccc(O)cc1)N1CCc2ccccc21 (stereo not shown) | MCF7 3xERE-luc, steroid-deprived | ERE luciferase reporter, agonist | – | – | – | EC50 | 0.0251 µM
C=C(NC(=O)c1csc(-c2cccnc2)n1)C(=O)NC(=C)C(=O)OC | SCC-61 | cell viability | – | – | – | EC50 | 8.4 µM
CC(=O)N(C)Cc1cccc(-c2cc3c(c(C(F)(F)F)c2)CCCC3N(C)C(=O)CCOCCOCCC(=O)N(C)C2CCCc3c2cc(-c2cccc(CN(C)C(C)=O)c2)cc3C(F)(F)F)c1 (stereo not shown) | CHO EIF2B4 L180F mutant | CHOP::GFP reporter, activator, flow cytometry | – | – | – | EC50 | 22.6 µM
COC(=O)c1c(NC(=O)Cn2cnc([N+](=O)[O-])n2)sc2c1CCC(C)C2 (stereo not shown) | Trypanosoma cruzi | reporter mRNA translation, inhibitor, refers to: capped polyadenylated Renilla luciferase mRNA | cell-free extract | concentration not given | baseline: control RNA | relative translation | 110%
COc1ccc(N(C2CCCCC2)S(=O)(=O)C2CC3OC2C(c2ccc(O)cc2)=C3c2ccc(O)cc2)cc1 (stereo not shown) | MCF7 3xERE-luc, steroid-deprived | ERE luciferase reporter, agonist | – | – | – | EC50 | 0.0316 µM
COC(=O)[C@H](C)NC(=O)[C@H](C)NC(=O)c1csc(-c2cccnc2)n1 | SCC-61 | cell viability | – | – | – | EC50 | > 30 µM
N#Cc1c(Nc2ccccc2C(F)(F)F)s[nH]c1=O | human iPSC-derived motor neurons | protection from axon fragmentation | – | 16 h, after axotomy | – | EC50 | 5 µM
CN(C)Cc1nc(Nc2ccc(-c3cnc4cc(F)ccn34)c3c2C(=O)NC3)ccc1C1CCOC1 (stereo not shown) | human CD8 T cells | cytokine induction, refers to: IFNγ | – | added: anti-CD3/CD28 | – | EC50 | 0.011 µM
Cc1ccncc1.[Cl-].[Cl-].[Ru+2].c1cc(-c2ccc3cccnc3n2)nc(-c2ccc3cccnc3n2)c1.c1ccc2cc3nc4c5cccnc5c5ncccc5c4nc3cc2c1 | SK-MEL-28 | photocytotoxicity | – | visible light 400-700 nm, 100 J/cm2, oxygen 1% | – | EC50 | 78.2 ± 0.9 µM
CCN(CC)c1ccc2c(c1)O[B-]1(c3ccccc3C#N)OC(=O)C(c3ccccc3)=N[N+]1=C2CC(C)C (stereo not shown) | HMC3 | cell viability, CCK-8 | – | 24 h | – | EC50 | 379 ± 160 µM
CCOc1cc(CN2CCCC(CNC(=O)c3ccc(F)cc3)C2)ccc1OC (stereo not shown) | Trypanosoma cruzi | reporter mRNA translation, inhibitor, refers to: capped polyadenylated Renilla luciferase mRNA | cell-free extract | concentration not given | baseline: control RNA | relative translation | 102%

A few entries again:
SMILES | target or system | test | system | setting | scale | quantity | result
N#Cc1c(Nc2ccccc2C(F)(F)F)s[nH]c1=O | human iPSC-derived motor neurons | protection from axon fragmentation | – | 16 h, after axotomy | – | EC50 | 5 µM
CN(C)Cc1nc(Nc2ccc(-c3cnc4cc(F)ccn34)c3c2C(=O)NC3)ccc1C1CCOC1 (stereo not shown) | human CD8 T cells | cytokine induction, refers to: IFNγ | – | added: anti-CD3/CD28 | – | EC50 | 0.011 µM
